Assay results from different studies.
Every numbered part comes from another study and shows a few of its results, in no order. Changes are numbered by the printed parent chain.

Study 1 — technique: RNA Bind-n-Seq; form: RNA; matrix: in vitro; tested at: 1 µM; notes: whole 134-nt RNA, ends assumed; added: 150 mM KCl; baseline: input library; reading: higher = stronger binding; quantity: log2 enrichment
Target: Ras GTPase-activating protein-binding protein 1, C-terminal RGG region (G3BP1, Homo sapiens, UniProt Q13283)
UniProt Q13283, sequence (whole entry, looked up): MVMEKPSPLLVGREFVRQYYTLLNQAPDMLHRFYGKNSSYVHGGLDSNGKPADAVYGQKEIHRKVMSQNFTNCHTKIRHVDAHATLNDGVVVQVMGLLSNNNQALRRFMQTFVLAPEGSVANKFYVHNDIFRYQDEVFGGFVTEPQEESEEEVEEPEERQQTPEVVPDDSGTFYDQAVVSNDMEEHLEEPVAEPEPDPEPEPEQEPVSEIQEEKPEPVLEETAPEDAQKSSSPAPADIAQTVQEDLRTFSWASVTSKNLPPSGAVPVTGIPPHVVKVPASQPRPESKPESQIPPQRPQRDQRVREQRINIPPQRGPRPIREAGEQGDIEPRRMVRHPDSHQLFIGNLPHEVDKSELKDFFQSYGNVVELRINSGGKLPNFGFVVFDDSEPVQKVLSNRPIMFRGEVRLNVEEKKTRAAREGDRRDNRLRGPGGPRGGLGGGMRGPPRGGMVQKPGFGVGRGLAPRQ
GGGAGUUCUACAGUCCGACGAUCAAGUCCUGUGCUACACAUCGUAUGUACCGAAUCGGUUUUUUUGGAGGAAAAAAAGGAAAGUAUUAUGUUACGCCGUUCGGAUCUGCACUUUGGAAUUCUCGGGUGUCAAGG: -2.13
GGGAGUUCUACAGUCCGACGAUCGUGCUACACAUCGUAUGUACCGAAUCGGGGAAAAAAAGGGGAAAAAAAGGGGUUUUUUUGGGGAAAGUAUUAUGUUACGCCGUUCGGAUCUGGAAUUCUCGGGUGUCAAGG: 0.904
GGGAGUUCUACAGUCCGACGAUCCUGUGCUACACAUCGUAUGUACCGAAUCGGCCCCCCCGGGGCCCCCCCGGGCCCCCCCGGGAAAGUAUUAUGUUACGCCGUUCGGAUCUGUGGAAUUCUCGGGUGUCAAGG: -2
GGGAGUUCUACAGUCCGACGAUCUAACUUUAGAGGAGGAUCUGAUGGAUAUGGCAGUGGACGUGGAUUUGGGGAUGGCUAUAAUGGGUAUGGAGGAGGACCUGGAGGAGGCAAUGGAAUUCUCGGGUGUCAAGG: -1.02
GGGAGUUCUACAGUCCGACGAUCUCAAGUCCUGUGCUACACAUCGUAUGUACCGAAUCGGUGGUUUUUGGUUUUUGGAAAGUAUUAUGUUACGCCGUUCGGAUCUGCACUUCCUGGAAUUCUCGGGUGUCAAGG: -1.05
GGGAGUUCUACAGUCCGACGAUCUUUCUAGCUGGACCAGUCCGGUACGCUCCGGGCCUCACCGAGGAAGUCCCACCCUGCAGGGGAACCGACUCUGGCCGGCCCUAACCCCUCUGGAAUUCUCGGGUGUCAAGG: -1.19
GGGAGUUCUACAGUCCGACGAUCACCAUGCAGGUAAACAUCUUUGGGAAGUGGGGCAAGGGGGGGAUAGGGAGGGGGGUAACACUUUGGGAACAGGUGGUCCCAGGUCGUUUCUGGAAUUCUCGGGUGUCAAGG: -1.1
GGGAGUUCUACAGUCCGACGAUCAAGUCCUGUGCUACACAUCGUAUGUACCGAAUCGGGUUUUGGGGUUUUGGGUUUUGGAAAGUAUUAUGUUACGCCGUUCGGAUCUGCACUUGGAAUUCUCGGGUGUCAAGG: -0.797
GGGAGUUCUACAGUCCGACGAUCUGGGAGGUGGAUUUUGUUUAUUUUUUAAGCUCAUUUCCAGGGGUGGGAAUUUUUUUUUAAUAUGUGUCAUGAAUAAAGUUGUUUUUGAAAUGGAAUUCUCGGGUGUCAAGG: 3.46
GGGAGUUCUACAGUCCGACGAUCAGUCCUGUGCUACACAUCGUAUGUACCGAAUCGGGUUUUUUUGGGAAAAAGGGAGGGAAAGUAUUAUGUUACGCCGUUCGGAUCUGCACUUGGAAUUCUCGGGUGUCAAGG: 0.831
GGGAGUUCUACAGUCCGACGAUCCACAGACAACACGCACCCACACAGACACAGAGGGAAGAAAUUGGGAUGGGGACAGGGUGCACAGCAGGGCGGGGUAGGACCCCAGCCCCUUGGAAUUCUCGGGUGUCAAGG: -0.436
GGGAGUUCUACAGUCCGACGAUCUAACUUUAGAGGAGGAUCUGAUGGAUAUGGCAGUGGACGUGGAUUUGGGGAGGGCUAUAAUGGGUAUGGAGGAGGACCUGGAGGUGGCAAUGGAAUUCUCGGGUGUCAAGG: -0.0914
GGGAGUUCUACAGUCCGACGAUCCCAACUCCUAUAAUUCCCUAUCUUUUAGUUUUAGUUGCAGAAACAUUUUGUGGUCAUUAAGCAUUGGGUGGGUAAAUUCAACCACUGUAAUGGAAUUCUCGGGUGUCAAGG: -0.47

Study 2 — target: CCNF, cyclin fold, Cln2 fusion (human); technique: yeast growth competition, sequencing; matrix: yeast; notes: strong parent motif; baseline: not given; reading: higher = stronger binding; quantity: normalised enrichment score
Parent: E2F1 docking peptide (human); PPVKRRLDFETDH
K4T: 6.84
D12E: 7.29
F9A: 0.666
V3A: 6.99

Study 3 — technique: protein binding microarray; form: double-stranded DNA, one strand shown; matrix: in vitro; tested at: not given; baseline: not given; reading: higher = stronger binding; quantity: E-score
Target: Histone acetyltransferase KAT6A, winged helix 1, GST fusion (KAT6A, Homo sapiens, UniProt Q92794, residues 1-85)
Notes: 8-mer, flanks averaged, mean of 2 arrays, mostly near background
Target sequence (chain): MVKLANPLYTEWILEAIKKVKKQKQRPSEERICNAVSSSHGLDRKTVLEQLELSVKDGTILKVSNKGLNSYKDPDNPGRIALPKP
AGATGACA: -0.184
AAACATCC: -0.103
TGTGTGAA: -0.171
AATAGCCC: 0.0485
CAGGACTC: -0.147
CACGGTAA: 0.211
ACACTTCT: -0.174
ATGACGTC: 0.113
AATCGACC: 0.00592
CCATGCCG: 0.223
CCCGTTCC: 0.0764
CCGGCGAC: 0.367

Single results of other studies
PhoQ, residues 284 288 289 292 302 303 SLGVVW — fold induction (PhoP, residues 12 14 15 18 19 NQFFI (Escherichia coli, UniProt P23836); Sort-seq, refers to: YFP reporter; E. coli; PhoQ-PhoP variant library, added: 10 µM Mg2+; baseline: high Mg2+ state, higher = stronger signaling): 22.3

A few entries again (study 3):
CCGGCGAC: 0.367
CCATGCCG: 0.223
